Published values pooled from the literature.
Compare with care: the assays were run in different laboratories.
Target: TGF-beta receptor type-2 (TGFBR2, Homo sapiens, UniProt P37173)

Compound	assay	system	setting	how to read	measurement	result
Nc1ncc(-c2cc(-c3cnn(CC(F)(F)F)c3)ncc2F)nc1C(=O)NC1CNCC(F)C1 (stereo not shown)	enzyme activity	–	1 µM	reference: DMSO control	remaining activity	94.8%
Cc1ccc(C(=O)Nc2ccc(CN3CCN(C)CC3)c(C(F)(F)F)c2)cc1C#Cc1cnc2cccnn12	target engagement, NanoBRET	human cells	–	–	Hill slope	-15
Nc1ncc2c(n1)-c1c([nH]c3ccc(C4=CCOCC4)cc13)CCC2	binding, competition with immobilised ligand	–	1 µM	–	remaining binding	100%
CNC(=O)C1CCN(c2cc(C)c(F)cc2NC(=O)c2ccc(-c3cc(O)ccc3C)c(C)c2)CC1	binding, competition with immobilised ligand	–	1 µM	–	remaining binding	19%
CN1CCN(Cc2ccc(-c3ccc(CO[C@H]4CCC[C@@H]4NC(=O)c4cc(-c5cnn(C)c5)cnc4N)cc3)cc2)CC1	enzyme activity, inhibitor	–	0.1 µM	–	inhibition	6%
C=CC(=O)Nc1cc(-c2nn(C3CCN(CCNC(=O)[C@H](C)CCC45CC6CC(CC(C6)C4)C5)CC3)c3ncnc(N)c23)ccc1Oc1ccccc1	inhibitor, KiNativ profiling	biochemical	2 µM	–	inhibition	8.8%
C=CC(=O)N1Cc2nc(-c3cc(-c4cc(Cl)cnc4Cl)c(F)cc3F)n(-c3ccncn3)c2C1	cell-free assay	–	1 µM	–	inhibition	9.4%
CN1CC[C@@H](COc2cnc(C#N)cc2-c2ccn3nc(NC(=O)C4CC4)cc3c2)C1	enzyme activity, inhibitor	–	1 µM	–	inhibition	22%
CC(C)=CC1OC(C)(C)C2C=C3C(=O)C(Cl)=CC(O)C3C3C(O)C4OC4C(=O)C132 (stereo not shown)	cell-free assay, competition with immobilised ligand	–	10 µM	–	remaining binding	100%
CCN1CCN(Cc2ccc(NC(=O)c3ccc(C)c(NC(=O)c4cncc(-c5cnn(C)c5)c4)c3)cc2C(F)(F)F)CC1	binding, competition with immobilised ligand	–	1 µM	–	remaining binding	26%
COc1cc(Nc2nc(C)cc(-c3cnn4nc(OC)ccc34)n2)cc(C(F)(F)F)c1	binding, competition with immobilised ligand	–	1 µM	–	remaining binding	100%
NC(=O)C[C@H]1CCc2sc3ncnc(O[C@H]4CC[C@H](N5CCOCC5)CC4)c3c21	enzyme activity, inhibitor	–	10 µM	–	inhibition	-8%
Cc1ccc(-c2c(/C=C(\C#N)C(=O)NC(C)C)n(CCCO)c3ncnc(N)c23)cc1	cell-free assay, competition with immobilised ligand	–	1 µM	–	remaining binding	74%

A few entries again:
Compound	assay	system	setting	how to read	measurement	result
COc1cc(Nc2nc(C)cc(-c3cnn4nc(OC)ccc34)n2)cc(C(F)(F)F)c1	binding, competition with immobilised ligand	–	1 µM	–	remaining binding	100%
NC(=O)C[C@H]1CCc2sc3ncnc(O[C@H]4CC[C@H](N5CCOCC5)CC4)c3c21	enzyme activity, inhibitor	–	10 µM	–	inhibition	-8%
